Published values pooled from the literature.
Protocols differ between the studies behind these lines.
GSK3B: Glycogen synthase kinase-3 beta (GSK3B, Homo sapiens, UniProt P49841)
UniProt P49841, sequence (whole entry, looked up): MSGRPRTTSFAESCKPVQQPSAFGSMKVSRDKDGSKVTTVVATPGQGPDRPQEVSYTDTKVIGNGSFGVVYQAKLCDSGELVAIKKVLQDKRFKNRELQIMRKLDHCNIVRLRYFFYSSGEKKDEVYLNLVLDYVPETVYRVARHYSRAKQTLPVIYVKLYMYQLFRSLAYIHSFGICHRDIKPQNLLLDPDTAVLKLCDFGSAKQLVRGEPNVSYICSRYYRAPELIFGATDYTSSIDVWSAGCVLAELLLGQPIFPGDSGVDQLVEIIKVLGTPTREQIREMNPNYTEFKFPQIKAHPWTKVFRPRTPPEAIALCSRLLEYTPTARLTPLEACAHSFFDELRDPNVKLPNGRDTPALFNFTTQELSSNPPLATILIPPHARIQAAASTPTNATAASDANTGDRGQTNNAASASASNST
CTSL: Procathepsin L (CTSL, Homo sapiens, UniProt P07711)
UniProt P07711, sequence (whole entry, looked up): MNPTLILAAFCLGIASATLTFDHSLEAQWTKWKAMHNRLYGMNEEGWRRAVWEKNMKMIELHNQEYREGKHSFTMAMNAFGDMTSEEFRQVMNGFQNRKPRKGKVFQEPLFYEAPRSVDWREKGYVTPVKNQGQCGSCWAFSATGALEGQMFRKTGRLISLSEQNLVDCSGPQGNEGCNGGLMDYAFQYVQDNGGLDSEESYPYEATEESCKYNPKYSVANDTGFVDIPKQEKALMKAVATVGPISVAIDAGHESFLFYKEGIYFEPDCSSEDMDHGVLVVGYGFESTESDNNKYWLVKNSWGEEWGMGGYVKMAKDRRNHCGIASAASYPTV
ST14: Suppressor of tumorigenicity 14 protein (ST14, Homo sapiens, UniProt Q9Y5Y6)
UniProt P10721, sequence (whole entry, unmodified, looked up): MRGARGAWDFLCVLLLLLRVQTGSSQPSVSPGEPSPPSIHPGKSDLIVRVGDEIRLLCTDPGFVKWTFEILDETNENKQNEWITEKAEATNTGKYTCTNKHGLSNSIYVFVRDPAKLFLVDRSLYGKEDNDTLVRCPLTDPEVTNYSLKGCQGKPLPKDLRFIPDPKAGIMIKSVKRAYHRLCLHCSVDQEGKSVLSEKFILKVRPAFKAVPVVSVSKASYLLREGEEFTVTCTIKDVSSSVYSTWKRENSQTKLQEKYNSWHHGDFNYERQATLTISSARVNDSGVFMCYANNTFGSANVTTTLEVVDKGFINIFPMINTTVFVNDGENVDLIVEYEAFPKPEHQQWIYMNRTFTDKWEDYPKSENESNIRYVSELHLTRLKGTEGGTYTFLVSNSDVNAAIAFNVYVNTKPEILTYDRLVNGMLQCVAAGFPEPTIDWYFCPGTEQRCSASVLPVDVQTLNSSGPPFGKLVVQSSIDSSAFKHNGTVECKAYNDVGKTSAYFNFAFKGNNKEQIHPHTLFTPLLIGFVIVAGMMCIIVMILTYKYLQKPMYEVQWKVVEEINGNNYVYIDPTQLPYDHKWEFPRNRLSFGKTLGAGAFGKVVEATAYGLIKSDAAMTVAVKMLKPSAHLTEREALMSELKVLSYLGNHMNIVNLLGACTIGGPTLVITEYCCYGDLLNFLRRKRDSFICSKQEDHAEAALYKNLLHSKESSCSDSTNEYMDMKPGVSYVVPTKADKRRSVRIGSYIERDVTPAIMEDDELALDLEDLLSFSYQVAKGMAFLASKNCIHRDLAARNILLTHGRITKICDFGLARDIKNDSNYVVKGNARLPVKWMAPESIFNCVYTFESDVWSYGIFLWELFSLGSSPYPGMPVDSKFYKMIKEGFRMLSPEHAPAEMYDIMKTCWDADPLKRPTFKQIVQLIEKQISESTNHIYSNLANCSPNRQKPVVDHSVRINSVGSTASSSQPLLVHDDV
UniProt Q9Y5Y6, sequence (whole entry, looked up): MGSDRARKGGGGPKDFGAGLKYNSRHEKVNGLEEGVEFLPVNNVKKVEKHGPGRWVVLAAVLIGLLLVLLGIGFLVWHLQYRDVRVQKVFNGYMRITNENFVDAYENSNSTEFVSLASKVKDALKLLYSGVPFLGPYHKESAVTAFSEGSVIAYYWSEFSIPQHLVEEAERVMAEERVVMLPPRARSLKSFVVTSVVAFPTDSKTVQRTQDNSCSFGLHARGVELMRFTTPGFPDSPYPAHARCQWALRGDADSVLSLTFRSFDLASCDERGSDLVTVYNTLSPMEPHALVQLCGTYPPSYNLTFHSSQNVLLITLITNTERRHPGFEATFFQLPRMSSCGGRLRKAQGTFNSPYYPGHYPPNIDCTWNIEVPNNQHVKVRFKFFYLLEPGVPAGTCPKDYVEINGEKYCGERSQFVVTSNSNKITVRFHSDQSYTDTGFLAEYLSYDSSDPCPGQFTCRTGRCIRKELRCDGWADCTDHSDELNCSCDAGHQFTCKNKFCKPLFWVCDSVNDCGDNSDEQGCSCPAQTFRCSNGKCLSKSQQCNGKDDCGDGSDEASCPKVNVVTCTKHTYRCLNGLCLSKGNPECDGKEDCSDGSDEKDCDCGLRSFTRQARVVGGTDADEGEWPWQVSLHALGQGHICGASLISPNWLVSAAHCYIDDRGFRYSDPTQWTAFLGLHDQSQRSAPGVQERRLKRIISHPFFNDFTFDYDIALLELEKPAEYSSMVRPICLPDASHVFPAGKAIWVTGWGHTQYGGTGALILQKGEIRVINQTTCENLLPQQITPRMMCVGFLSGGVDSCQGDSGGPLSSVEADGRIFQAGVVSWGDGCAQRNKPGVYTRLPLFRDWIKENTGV
UniProt P36896, sequence (whole entry, looked up): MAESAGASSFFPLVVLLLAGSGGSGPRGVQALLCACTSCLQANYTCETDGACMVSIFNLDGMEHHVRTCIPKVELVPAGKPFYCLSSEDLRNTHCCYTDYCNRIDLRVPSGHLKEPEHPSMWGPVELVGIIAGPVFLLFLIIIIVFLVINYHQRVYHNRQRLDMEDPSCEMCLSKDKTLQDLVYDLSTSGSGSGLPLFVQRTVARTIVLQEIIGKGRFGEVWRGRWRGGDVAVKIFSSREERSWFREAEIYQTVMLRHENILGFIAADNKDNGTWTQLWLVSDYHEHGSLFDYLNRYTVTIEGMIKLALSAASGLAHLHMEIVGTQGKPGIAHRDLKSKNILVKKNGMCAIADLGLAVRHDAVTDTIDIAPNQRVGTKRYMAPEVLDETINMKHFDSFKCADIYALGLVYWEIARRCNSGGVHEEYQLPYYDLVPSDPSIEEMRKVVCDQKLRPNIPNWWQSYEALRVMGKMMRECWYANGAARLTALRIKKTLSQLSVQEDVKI
UniProt P31751, sequence (whole entry, looked up): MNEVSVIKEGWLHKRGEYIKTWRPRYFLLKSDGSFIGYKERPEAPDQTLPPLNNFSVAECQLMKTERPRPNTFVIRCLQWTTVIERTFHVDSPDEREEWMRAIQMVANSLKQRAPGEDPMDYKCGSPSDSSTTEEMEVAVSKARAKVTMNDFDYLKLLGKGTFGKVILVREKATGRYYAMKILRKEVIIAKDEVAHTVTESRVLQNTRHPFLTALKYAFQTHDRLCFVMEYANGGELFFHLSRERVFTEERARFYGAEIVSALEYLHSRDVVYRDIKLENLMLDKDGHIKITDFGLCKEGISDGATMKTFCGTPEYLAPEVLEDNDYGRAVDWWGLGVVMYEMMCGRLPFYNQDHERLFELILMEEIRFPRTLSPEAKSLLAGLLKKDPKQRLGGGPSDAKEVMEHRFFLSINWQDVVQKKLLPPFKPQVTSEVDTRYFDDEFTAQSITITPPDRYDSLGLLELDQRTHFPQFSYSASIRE
UniProt P48426, sequence (whole entry, looked up): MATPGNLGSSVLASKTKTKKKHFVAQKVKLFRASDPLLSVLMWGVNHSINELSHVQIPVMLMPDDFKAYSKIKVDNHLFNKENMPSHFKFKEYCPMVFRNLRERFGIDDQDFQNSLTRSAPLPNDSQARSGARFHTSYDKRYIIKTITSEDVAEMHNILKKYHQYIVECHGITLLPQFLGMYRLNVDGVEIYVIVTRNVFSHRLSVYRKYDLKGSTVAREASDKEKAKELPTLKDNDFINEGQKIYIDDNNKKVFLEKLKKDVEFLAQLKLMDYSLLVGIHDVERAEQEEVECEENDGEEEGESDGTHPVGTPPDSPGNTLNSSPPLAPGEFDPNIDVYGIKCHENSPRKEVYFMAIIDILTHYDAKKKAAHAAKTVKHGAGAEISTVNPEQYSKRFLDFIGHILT
UniProt P78368, sequence (whole entry, looked up): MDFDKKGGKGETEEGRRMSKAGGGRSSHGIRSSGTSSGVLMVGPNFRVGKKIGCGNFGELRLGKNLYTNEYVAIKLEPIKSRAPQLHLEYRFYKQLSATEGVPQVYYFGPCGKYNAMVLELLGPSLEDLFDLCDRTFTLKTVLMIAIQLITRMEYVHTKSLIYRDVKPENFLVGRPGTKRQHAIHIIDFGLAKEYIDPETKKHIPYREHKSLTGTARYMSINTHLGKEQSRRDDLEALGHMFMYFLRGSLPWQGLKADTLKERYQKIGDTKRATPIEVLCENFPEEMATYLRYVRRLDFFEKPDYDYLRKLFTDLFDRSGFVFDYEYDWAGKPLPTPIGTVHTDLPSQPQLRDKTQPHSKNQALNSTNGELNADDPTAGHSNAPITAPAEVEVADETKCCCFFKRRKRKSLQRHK

The remaining activity of CC[C@H](C)[C@H](NC(=O)[C@H](CCC(N)=O)NC(=O)[C@@H](NC(=O)[C@H](CCSC)NC(=O)[C@H](CCCCN)NC(=O)[C@H](CO)NC(=O)[C@@H](NC(=O)[C@H](CCSC)NC(=O)[C@H](CC(C)C)NC(=O)[C@H](CC(N)=O)NC(=O)[C@@H](NC(=O)[C@@H](NC(=O)[C@H](CO)NC(=O)[C@H](CC(C)C)NC(=O)[C@H](C)NC(=O)[C@H](CCCNC(=N)N)NC(=O)[C@H](CCC(=O)O)NC(=O)[C@H](Cc1ccc(O)cc1)NC(=O)[C@H](Cc1ccccc1)NC(=O)[C@H](C)NC(=O)[C@H](CC(N)=O)NC(=O)[C@@H](N)CCCCN)[C@@H](C)CC)[C@@H](C)CC)[C@@H](C)O)C(C)C)C(=O)N[C@@H](CC(N)=O)C(=O)N[C@H](C(=O)O)C(C)C is reported as 115% (GSK3B; enzyme activity, inhibitor, radiometric; 100 µM, 20 min).
OCCc1c[nH]c2ccccc12 gave a remaining activity of 102% (CTSL; enzyme activity, inhibitor; 100 µM).
CC[C@H](C)[C@H](NC(=O)[C@H](CCC(N)=O)NC(=O)[C@H](CC(C)C)NC(=O)[C@H](CCSC)NC(=O)[C@H](CCCCN)NC(=O)[C@H](CO)NC(=O)[C@H](CO)NC(=O)[C@H](CCSC)NC(=O)[C@H](CC(C)C)NC(=O)[C@H](CC(N)=O)NC(=O)[C@@H](NC(=O)[C@@H](NC(=O)[C@H](CO)NC(=O)[C@H](CC(C)C)NC(=O)[C@H](CS)NC(=O)[C@H](CCCNC(=N)N)NC(=O)[C@H](CC(=O)O)NC(=O)[C@H](Cc1c[nH]c2ccccc12)NC(=O)[C@H](Cc1ccccc1)NC(=O)[C@H](C)NC(=O)[C@H](CCC(=O)O)NC(=O)[C@@H](N)CCCCN)C(C)C)[C@@H](C)CC)C(=O)N[C@@H](CC(N)=O)C(=O)N[C@@H](C)C(=O)O has a remaining activity of 99% (GSK3B; enzyme activity, inhibitor, radiometric; 10 µM, 20 min).
For Cc1cc([C@@H](C)Nc2ccccc2C(=O)O)c2nc(N3CCC(F)(F)CC3)c(C#N)c(=O)n2c1, the remaining binding was 100% (AKT2 (Homo sapiens, UniProt P31751); binding, competition with immobilised ligand; 10 µM).
N=C(N)NCCC[C@H](NC(=O)[C@H](Cc1ccncc1)NC(=O)[C@H](Cc1cscn1)NC(=O)CCc1ccccc1)C(=O)c1nc2ccccc2s1 has a remaining activity of 62% (ST14; enzyme activity, inhibitor; 0.1 µM).
The remaining binding of C1=C/COCc2cc(ccc2OCCN2CCCC2)Nc2nccc(n2)-c2cccc(c2)COC/1 is reported as 35% (KIT (Homo sapiens, UniProt P10721, A829P); binding; 0.1 µM).
With Cc1cc(NS(=O)(=O)c2ccc(N=NN(C)O)cc2)no1 the inhibition was 37.5% (ABTS scavenging; 120 µg/mL).
The remaining binding of C=CC(=O)N1CCC(COCC(=O)N2CCN(c3nc(-c4cnc(N)nc4C(F)F)nc(N4CCOC[C@@H]4C)n3)CC2)CC1 is reported as 100% (PIM3 (Homo sapiens, UniProt Q86V86); binding, competition with immobilised ligand; 1 µM).
For COc1cc(Cl)c(C(=O)N[C@@H](CN[C@H]2CC[C@@H](N)CC2)Cc2ccc(C#N)cc2)cc1-c1ccc(CN[C@H](C)c2ccc(C)cc2)o1, the remaining activity was 102% (PIP4K2A (Homo sapiens, UniProt P48426); enzyme activity, inhibitor; 1 µM).
With CCCCC(=O)Nc1ccc(-c2ccc3ncn(CCC)c(=O)c3c2)cn1 the remaining binding was 100% (KIT (Homo sapiens, UniProt P10721, V559D/V654A); binding, competition with immobilised ligand; 0.5 µM).
CNc1ncc2c(/C=C/C(=O)N3CCC(OC)CC3)nn(Cc3cccc(C(F)(F)F)c3)c2n1 gave a remaining activity of 105% (ACVR1B (Homo sapiens, UniProt P36896); enzyme activity, inhibitor, radiometric; 1 µM).
CC[C@H](C)[C@H](NC(=O)[C@H](Cc1cscn1)NC(=O)CCc1ccccc1)C(=O)N[C@@H](CCCNC(=N)N)C(=O)c1nc2ccccc2s1 has a remaining activity of 8% (ST14; enzyme activity, inhibitor; 0.1 µM).
With COc1cc(O)cc(O)c1C(=O)/C=C/c1ccccc1 the remaining activity was 8.82% (CTSL; enzyme activity, inhibitor; 100 µM).
With CCN(O)N=Nc1ccc(S(=O)(=O)Nc2nccs2)cc1 the inhibition was 45.2% (ABTS scavenging; 180 µg/mL).
CC1(C)CCC2=C(O1)c1ccccc1C(=O)C2=O gave a remaining activity of 8.35% (CTSL; enzyme activity, inhibitor; 100 µM).
COc1cc(-c2cncc3c2CN(C)Cc2cc(N4CCNCC4)ccc2-3)cc(OC)c1OC has a remaining activity of 108% (CSNK1G2 (Homo sapiens, UniProt P78368); enzyme activity, inhibitor; 1 µM).
With C=CCS[S+]([O-])CC=C (stereo not drawn) the remaining activity was 101% (CTSL; enzyme activity, inhibitor; 100 µM).
The remaining activity of Cc1ccc(C[C@H](NC(=O)OC(C)(C)C)C(=O)NC/C=C/S(=O)(=O)c2ccccc2)cc1 is reported as < 1% (Rhodesain (rhodesain, Trypanosoma brucei rhodesiense, UniProt Q95PM0); enzyme activity, inhibitor, fluorescence; 5 µM).

Repeated from above:
The remaining activity of CC[C@H](C)[C@H](NC(=O)[C@H](CCC(N)=O)NC(=O)[C@@H](NC(=O)[C@H](CCSC)NC(=O)[C@H](CCCCN)NC(=O)[C@H](CO)NC(=O)[C@@H](NC(=O)[C@H](CCSC)NC(=O)[C@H](CC(C)C)NC(=O)[C@H](CC(N)=O)NC(=O)[C@@H](NC(=O)[C@@H](NC(=O)[C@H](CO)NC(=O)[C@H](CC(C)C)NC(=O)[C@H](C)NC(=O)[C@H](CCCNC(=N)N)NC(=O)[C@H](CCC(=O)O)NC(=O)[C@H](Cc1ccc(O)cc1)NC(=O)[C@H](Cc1ccccc1)NC(=O)[C@H](C)NC(=O)[C@H](CC(N)=O)NC(=O)[C@@H](N)CCCCN)[C@@H](C)CC)[C@@H](C)CC)[C@@H](C)O)C(C)C)C(=O)N[C@@H](CC(N)=O)C(=O)N[C@H](C(=O)O)C(C)C is reported as 115% (GSK3B; enzyme activity, inhibitor, radiometric; 100 µM, 20 min).
CC[C@H](C)[C@H](NC(=O)[C@H](Cc1cscn1)NC(=O)CCc1ccccc1)C(=O)N[C@@H](CCCNC(=N)N)C(=O)c1nc2ccccc2s1 has a remaining activity of 8% (ST14; enzyme activity, inhibitor; 0.1 µM).
